Published values from different studies.
Protocols differ between the studies behind these lines. Numbers after ± are the reported error. In brackets after ≈: the same amount, converted by molar mass.
Organism: Staphylococcus epidermidis

Structure (SMILES) | test | system | setting | how to read | quantity | result
Oc1c(Br)cc(Br)c2nc3ccc(C(F)(F)F)cc3nc12 | Calgary biofilm device | MRSE 35984 |  |  | MBEC | 150 µM
CC(C)[C@H](NC(=O)[C@H](CO)NC(=O)[C@@H](N)CC(=O)O)C(=O)N[C@H]1CSC(=O)[C@H](Cc2ccccc2)NC(=O)[C@H](Cc2ccc(O)cc2)NC(=O)[C@H](CO)NC(=O)[C@H](C)NC1=O | safranin staining | RP62A | 10 µM, 24 h, 37 °C | baseline: DMSO control | biofilm inhibition | 51%
CC1COC2=C1C(=O)C(=O)c1c2ccc2c1C(OC(=O)CNC(=O)C(N)CO)CCC2(C)C (mixture of isomers) |  |  | 10 µmol/mL, 48 h, 10 µL on 6 mm disc |  | inhibition zone diameter | 22.7 ± 1.3 mm
C[C@@H]1NC(=O)[C@H](C)NC(=O)[C@@H](NC(=O)[C@@H]2CCCN2C(=O)[C@H](CC(N)=O)NC(=O)[C@H](Cc2ccc(O)cc2)NC(=O)[C@@H](N)Cc2cccc(CN)c2)CSC(=O)[C@H](Cc2cccc(F)c2)NC(=O)[C@H](Cc2ccc(O)cc2)NC1=O | safranin staining | RP62A | 10 µM, 37 °C | baseline: DMSO control | biofilm dispersal | 30.8%
O=c1n(CCNCCOS(=O)(=O)c2ccccc2)c(=O)n(S(=O)(=O)c2ccccc2)c(=O)n1S(=O)(=O)c1ccccc1 | broth microdilution |  |  |  | MLC | 4 ± 1 µg/mL
CC[C@H](C)[C@H](NC(=O)[C@H](CCCCN)NC(=O)[C@H](CCCCN)NC(=O)[C@H](Cc1ccccc1)NC(=O)[C@H](Cc1ccccc1)NC(=O)[C@H](CCCCN)NC(=O)[C@H](CCCCN)NC(=O)[C@H](Cc1ccccc1)NC(=O)[C@H](CCCNC(=N)N)NC(=O)[C@@H](N)CCCCN)C(=O)N[C@@H](CCCCN)C(=O)N[C@@H](CCCCN)C(=O)N[C@@H](CO)C(=O)N[C@H](C(=O)N[C@@H](CCCCN)C(=O)N[C@@H](CCCCN)C(=O)N[C@@H](CCCNC(=N)N)C(=O)N[C@H](C(=O)N[C@@H](CCCCN)C(=O)N[C@@H](CCCCN)C(=O)N[C@@H](CC(C)C)C(=O)N[C@@H](Cc1ccccc1)C(=O)N[C@@H](CCCCN)C(=O)N[C@@H](CCCCN)C(=O)N1CCC[C@H]1C(=O)N[C@@H](CCCNC(=N)N)C(=O)N[C@H](C(=O)N[C@H](C(=O)N1CCC[C@H]1C(=O)N[C@H](C(=O)N[C@@H](CO)C(=O)N[C@H](C(=O)N1CCC[C@H]1C(=O)N[C@@H](Cc1ccccc1)C(=O)O)[C@@H](C)CC)[C@@H](C)CC)[C@@H](C)CC)C(C)C)C(C)C)C(C)C |  | clinical isolate | 20 h, 37 °C |  | MBC | 8 µg/mL (≈ 1.9 µM)
O=CCNCCOn1c(=O)n(OCCNCCO)c(=O)n(OCCNCCOn2c(=O)n(OCCNCCO)c(=O)n(OCCNCCO)c2=O)c1=O | broth microdilution |  |  |  | MLC | 4 ± 1 µg/mL (≈ 5.2 µM)
C[C@@H]1NC(=O)[C@H](C)NC(=O)[C@@H](NC(=O)[C@@H]2CCCN2C(=O)[C@H](CC(N)=O)NC(=O)[C@H](Cc2ccc(O)cc2)NC(=O)[C@@H](N)CCCCN)CSC(=O)[C@H](Cc2ccccc2)NC(=O)[C@H](Cc2ccc(O)cc2)NC1=O | safranin staining | RP62A | 10 µM, 24 h, 37 °C | baseline: DMSO control | biofilm inhibition | 18.2%
Oc1c(Br)cc(Br)c2nc3cc(F)c(F)cc3nc12 | Calgary biofilm device | MRSE 35984 |  |  | MBEC | 25 µM
CC1COC2=C1C(=O)C(=O)c1c2ccc2c1C(OC(=O)CNC(=O)CN)CCC2(C)C (mixture of isomers) |  |  | 10 µmol/mL, 48 h, 10 µL on 6 mm disc |  | inhibition zone diameter | 19.8 ± 1 mm

Some of these lines once more:
Structure (SMILES) | test | system | setting | how to read | quantity | result
CC1COC2=C1C(=O)C(=O)c1c2ccc2c1C(OC(=O)CNC(=O)C(N)CO)CCC2(C)C (mixture of isomers) |  |  | 10 µmol/mL, 48 h, 10 µL on 6 mm disc |  | inhibition zone diameter | 22.7 ± 1.3 mm
C[C@@H]1NC(=O)[C@H](C)NC(=O)[C@@H](NC(=O)[C@@H]2CCCN2C(=O)[C@H](CC(N)=O)NC(=O)[C@H](Cc2ccc(O)cc2)NC(=O)[C@@H](N)Cc2cccc(CN)c2)CSC(=O)[C@H](Cc2cccc(F)c2)NC(=O)[C@H](Cc2ccc(O)cc2)NC1=O | safranin staining | RP62A | 10 µM, 37 °C | baseline: DMSO control | biofilm dispersal | 30.8%
